Measurements of several laboratories.
Numbered parts are unrelated; each lists some results of a single study.

Study 1
Target: Histone acetyltransferase KAT6A, both winged helices, GST fusion (KAT6A, Homo sapiens, UniProt Q92794, residues 1-181)
Method: protein binding microarray
Form: double-stranded DNA, one strand shown
Matrix: in vitro
Concentration: not given
Notes: 8-mer, flanks averaged, mean of 2 arrays, mostly near background
Baseline: not given
Reading: higher = stronger binding
Measurement: E-score
Construct (chain): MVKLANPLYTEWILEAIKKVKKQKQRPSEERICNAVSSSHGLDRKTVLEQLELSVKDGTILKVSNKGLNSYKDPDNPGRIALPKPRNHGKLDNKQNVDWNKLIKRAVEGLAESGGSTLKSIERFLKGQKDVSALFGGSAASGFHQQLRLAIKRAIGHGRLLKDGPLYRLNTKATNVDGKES
GGATGGTA: -0.0617
AGTCCTGA: -0.194
ACTCTAAG: -0.00193
GACAGCTA: -0.165
GATGCGAA: 0.0558
CGTGCAGA: -0.0181
ATTAGTAC: -0.0654
GGCTGGTA: -0.149
AAGCCATA: -0.23
GGTTCGAA: 0.0209
GGTCGCGA: 0.281
ATACAAGC: -0.0344
ACATAATC: 0.109
AGCACACG: 0.0147
AGTCAATG: -0.267
AGATAAGA: -0.0787
CGTTCCAC: 0.198
ATACTCCC: -0.0518
ATATATCC: 0.0796
AACCTGGG: -0.0878
CGGCAATA: 0.22

Study 2
Target: Prothrombin, mature alpha-thrombin (F2, Homo sapiens, UniProt P00734)
Method: aptamer microarray, sandwich
Form: DNA with 2'F-ANA
Matrix: in vitro
Concentration: 200 nM
Notes: whole 15-mer aptamer, many near background
Added: Cy3 exosite-II aptamer, 400 nM
Reading: higher = stronger binding
Measurement: mean fluorescence intensity
Sequence: GGTTGGTGTGGTTGG
2'F-ANA at 2 5 10 11 12 13: 47.8 a.u.
2'F-ANA at 1 2 4 6 8 9 11 12 14: 53.5 a.u.
2'F-ANA at 1 2 6 7 8 9 13 15: 115 a.u.
2'F-ANA at 1 2 3 10 11 15: 141 a.u.
2'F-ANA at 2 4 6 7 8 10 13: 72 a.u.
2'F-ANA at 1 2 4 6 7 8 11: 119 a.u.
2'F-ANA at 2 3 4 5 7 8 13 14: 94.5 a.u.
2'F-ANA at 2 3 4 5 6 7 10 11 15: 59.1 a.u.
2'F-ANA at 1 2 5 7 9 10 12: 49.8 a.u.
2'F-ANA at 5 8 12 13 14 15: 48.3 a.u.
2'F-ANA at 2 3 9 11: 848 a.u.
2'F-ANA at 3 6 7 12 13 14 15: 580 a.u.
2'F-ANA at 2 4 6 7 11 12 13 15: 292 a.u.
2'F-ANA at 2 5 8 9 11 12 13 14 15: 46.5 a.u.
2'F-ANA at 1 2 3 5 6 8: 227 a.u.
2'F-ANA at 1 2 3 7 8 9 11 12 13: 384 a.u.
2'F-ANA at 1 3 4 8 10 11 12 15: 72.7 a.u.
2'F-ANA at 7 9 10 11 12 13 14: 111 a.u.
2'F-ANA at 2 3 5 6 7 8 9 11 13 15: 68.1 a.u.
2'F-ANA at 6 9 10 11 12 13: 153 a.u.
2'F-ANA at 6 8: 609 a.u.
2'F-ANA at 2 3 5 8 9 12: 251 a.u.

Study 3
Target: human cyclin A2
Method: competitive growth deep sequencing
Form: peptide
Organism: Saccharomyces cerevisiae
Strain: cyclin A2-Cln2 fusion strain
Notes: peptide tiling library
Reading: direction not given
Measurement: enrichment score
VKRLNFRSEEME: 0.413
SPPRGRRLFPPGPAGF: -0.0515
QNPCGSKACRRLFGPV: 1.4
RTEALEQGGLPKKLIF: 1.54
ASVLSKPIFCFVKD: 0.411
EHCRVLFLDHVMYTIH: -0.701
YLYLLLTQSLWCRV: -0.197
DKYDEGLYRFNSLNDL: 0.596
QYQVVDDIVSKLVFDF: 0.303
LENIEPLQVSFAVLSS: 1.13
AEHPKPSACRNLFGPV: 2.35
EPRNLLSLFEDTLDPT: 1.25
NSMKELNFSHLPSNSV: 0.171
GPVKLEFDVSDGAT: 0.705

Study 4
Target: Interferon regulatory factor 5, full length, phosphomimetic (IRF5, Homo sapiens, UniProt Q13568-2, residues 1-514, K96S/S451D/S453D/S456D/S462D)
Method: protein-binding microarray
Form: double-stranded DNA, one strand shown
Matrix: in vitro
Concentration: 250 nM
Notes: 60-bp whole probe
Added: salmon DNA 0.4 mg/ml
Baseline: random background probes
Reading: higher = stronger binding
Measurement: log fluorescence
All sequences stand within: GCCTAGCAC … GTCTTGATTCGCTTGACGCTGCTG
GTAGGTATCGGACTGGGTTAGTGCTAG: 1.34 z-score
TTAGGACTGGACCCTGGGTTAGTGCTA: -0.635 z-score
TTAGGACTGCTACTGCTTCAGTGCTAG: -0.265 z-score
TAAGGAGGCAGGGATGCTCCGTGCTAG: -0.497 z-score
TTCATTTTCTTTAACTCATTGTGCTAG: 1.96 z-score
TTAGGTTCCGGCTTCGGTTAGTGCTAG: 0.992 z-score
TTAAGTTTCGGTCTCGGTTAGTGCTAG: 10.8 z-score
TTAGATTTCAGTTCCGAGTAGTGCTAG: 2.03 z-score
TCACCTTTCAGTTTTCCACTGTGCTAG: 2.43 z-score
GACTATATCGGGTTTCGAGACGTGCTA: 3.46 z-score
GAGGGTTTCCTACTGCTGACGTGCTAG: -0.297 z-score
GACGGCCTGGGACTGGGGACGTGCTAG: -0.726 z-score
TCATGTCTGGATGTGCCACTGTGCTAG: 0.0102 z-score
GACGTTTTCGGTTTCGGGACGTGCTAG: 10 z-score
GACGTTATCGGTATCGGGACGTGCTAG: 6.23 z-score
GACGATTTCAGTATCAAGACGTGCTAG: 2.08 z-score

Study 5
Target: Sal-like protein 4, full length isoform A (SALL4, Homo sapiens, UniProt Q9UJQ4, residues 1-1053)
Sequence of UniProt Q9UJQ4 (whole entry, looked up): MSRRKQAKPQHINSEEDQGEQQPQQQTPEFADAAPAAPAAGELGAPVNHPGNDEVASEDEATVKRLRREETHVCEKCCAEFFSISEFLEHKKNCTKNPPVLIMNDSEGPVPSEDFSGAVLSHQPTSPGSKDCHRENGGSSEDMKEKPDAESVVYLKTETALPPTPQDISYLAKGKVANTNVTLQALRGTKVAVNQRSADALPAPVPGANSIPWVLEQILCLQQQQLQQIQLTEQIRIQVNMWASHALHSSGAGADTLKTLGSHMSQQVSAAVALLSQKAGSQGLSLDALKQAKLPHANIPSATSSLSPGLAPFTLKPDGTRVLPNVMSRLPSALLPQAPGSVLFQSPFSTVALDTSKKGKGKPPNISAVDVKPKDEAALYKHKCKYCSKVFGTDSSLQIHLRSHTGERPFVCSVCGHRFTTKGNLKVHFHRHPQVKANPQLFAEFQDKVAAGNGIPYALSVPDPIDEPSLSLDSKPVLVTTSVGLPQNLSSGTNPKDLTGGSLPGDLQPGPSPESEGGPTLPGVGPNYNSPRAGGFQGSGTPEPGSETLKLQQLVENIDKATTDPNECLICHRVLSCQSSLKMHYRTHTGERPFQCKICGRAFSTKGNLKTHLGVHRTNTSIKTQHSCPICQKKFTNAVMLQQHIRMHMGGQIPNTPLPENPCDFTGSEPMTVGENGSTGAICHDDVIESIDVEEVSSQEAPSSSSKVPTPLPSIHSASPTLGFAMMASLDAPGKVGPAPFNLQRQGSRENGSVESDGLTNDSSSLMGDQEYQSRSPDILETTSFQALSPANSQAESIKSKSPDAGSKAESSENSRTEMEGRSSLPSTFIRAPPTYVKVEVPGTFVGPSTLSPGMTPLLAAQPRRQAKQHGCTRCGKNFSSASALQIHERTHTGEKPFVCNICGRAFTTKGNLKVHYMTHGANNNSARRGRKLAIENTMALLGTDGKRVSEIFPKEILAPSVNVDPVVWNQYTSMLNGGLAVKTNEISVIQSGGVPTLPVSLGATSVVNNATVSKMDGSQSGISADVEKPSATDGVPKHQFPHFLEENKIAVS
Method: universal PBM
Form: double-stranded DNA, one strand shown
Matrix: in vitro
Concentration: 600 nM
Notes: 8-mer, flanks averaged, mean of replicates
Reading: higher = stronger binding
Measurement: E-score
CGCATAAA: 0.236
CTATCCAC: -0.0011
ATAAAGGG: 0.146
TCTGACCA: 0.017
GCATTGGC: -0.143
CCGCGAAA: -0.139
AAGTCGCA: 0.0593
ACGTCTTA: 0.0854
AGACAGTA: 0.164
TCTCTTAA: 0.139
GCTTCTTA: 0.0255
TCGTCGAA: 0.0386
ACAGATCG: -0.11
CTTCTTAC: -0.119
AGTTATCA: 0.273
CATCTCTA: 0.112
GCATGTCA: 0.0559

Excerpt of the above (study 2):
2'F-ANA at 1 2 3 7 8 9 11 12 13: 384 a.u.
2'F-ANA at 2 5 8 9 11 12 13 14 15: 46.5 a.u.
2'F-ANA at 1 2 3 10 11 15: 141 a.u.
2'F-ANA at 1 2 6 7 8 9 13 15: 115 a.u.
2'F-ANA at 2 3 4 5 7 8 13 14: 94.5 a.u.
2'F-ANA at 1 2 5 7 9 10 12: 49.8 a.u.
2'F-ANA at 2 4 6 7 8 10 13: 72 a.u.
2'F-ANA at 2 3 4 5 6 7 10 11 15: 59.1 a.u.
2'F-ANA at 7 9 10 11 12 13 14: 111 a.u.
2'F-ANA at 3 6 7 12 13 14 15: 580 a.u.
2'F-ANA at 2 5 10 11 12 13: 47.8 a.u.
2'F-ANA at 2 3 5 8 9 12: 251 a.u.
2'F-ANA at 1 3 4 8 10 11 12 15: 72.7 a.u.
